Measured values of several laboratories.
Compare with care: the assays were run in different laboratories. Several values in a cell are separate wells, animals, samples, runs or records. Numbers after ± are the reported error.

`C[n+]1cc(/C=N/NC(=O)c2cc(C(=O)N/N=C/c3cc4ccccc4[n+](C)c3)ncn2)cc2ccccc21` gave a ΔTm of 1.5 ± 0.9 °C (hp2 hairpin duplex DNA; FRET melting; 1 µM).
`O=C(NN1C(=O)c2ccccc2NC1c1ccc([N+](=O)[O-])o1)c1ccc([N+](=O)[O-])cc1` (stereo not shown) has an AC50 of 39.8 µM (Mus musculus; gene silencing, high-content imaging; LDR reporter GFP cells; retest run 2).
With `O=C(N/N=C/c1cc[n+](Cc2ccccc2)c2ccccc12)c1cc(C(=O)N/N=C/c2cc[n+](Cc3ccccc3)c3ccccc23)ncn1` the ΔTm was 1.4 ± 0.5 °C (hp2 hairpin duplex DNA; FRET melting; 1 µM).
`CC1=C/C(=N\N=C(/S)Nc2cccnc2)CC(C)(C)C1` gave an AC50 of 31.6 µM (Mus musculus; gene silencing, high-content imaging; LDR reporter GFP cells; retest run 2).
With `O=C(N/N=C/c1ccc2c(ccc[n+]2Cc2ccccc2)c1)c1ccc2ccc(C(=O)N/N=C/c3ccc4c(ccc[n+]4Cc4ccccc4)c3)nc2n1` the ΔTm was 12.3 ± 0.1 °C (MYC parallel G4 DNA; FRET melting; 1 µM, DNA 0.2 µM, added: duplex DNA competitor 10 µM).
With `O=C(CSc1cccc[n+]1[O-])c1ccccc1Br` the EC50 was 28.2 µM (Mus musculus; gene silencing, high-content imaging; LDR reporter GFP cells; confirmation, mean of two runs).
With `O=C(c1cccc(-c2ccc3ncnc(Nc4ccc(OCc5cccc(F)c5)c(Cl)c4)c3c2)c1)N1CCOCC1` the EC50 was 3 µM (Leishmania major; parasite growth, resazurin; promastigote).
`CCN(CC)CC(=O)Nc1cccc(-n2cc(-c3ccc4ccc(-c5cn(-c6cccc(NC(=O)CN(CC)CC)c6)nn5)cc4c3)nn2)c1` gave a fold regulation of -1.69 (RCC4; PCR angiogenesis array, item: IL1B; 5 x IC50, 2 h, normoxia; reference: untreated).
With `CC(C)(C)c1cc(-c2ccc3cccnc3n2)nc(-c2ccc3cccnc3n2)c1.COc1ccncc1.[Cl-].[Cl-].[Ru+2].c1ccc2cc3nc4c5cccnc5c5ncccc5c4nc3cc2c1` the phototoxicity index was 41 (A-375; resazurin; added: light 633 nm, 100 J/cm2; reference: dark EC50 over light EC50).
For `CC[n+]1cccc2cc(/C=N/NC(=O)c3cccc(C(=O)N/N=C/c4ccc5c(ccc[n+]5CC)c4)c3)ccc21`, the ΔTm was 0.9 ± 0.1 °C (hp2 hairpin duplex DNA; FRET melting; 1 µM).
Under “prothrombin time prolongation”, `COC1OC(C)C(OS(=O)(=O)O)C(OC2OC(C)C(OS(=O)(=O)O)C(OC3OC(C)C(OS(=O)(=O)O)C(OS(=O)(=O)O)C3O)C2O)C1O` (stereo not shown) is recorded as 0.95 fold (human plasma; 128 µg/mL; reference: control).
`N=C(S)N/N=C/c1ncc(C(F)(F)F)cc1Cl` has an EC50 of 7.94 µM (Mus musculus; gene silencing, high-content imaging; LDR reporter GFP cells; confirmation, mean of two runs).
With `C=CC(=O)Nc1cccc(Cn2ncc3cnc(Nc4cnn(CCOC)c4)nc32)c1` the binding was 17% (human ABL1(F317L)-nonphosphorylated; KINOMEscan; 100 nM; reference: control).
The AC50 of `O=C(N/N=C/c1ccccn1)c1cc(-c2ccc(Cl)cc2)nc2ccccc12` is reported as 10 µM (Mus musculus; gene silencing, high-content imaging; LDR reporter GFP cells; retest run 1).
For `C[n+]1cccc2cc(/C=N/NC(=O)c3cncc(C(=O)N/N=C/c4ccc5c(ccc[n+]5C)c4)n3)ccc21`, the ΔTm was 9 ± 0.3 °C (MYC parallel G4 DNA; FRET melting; 1 µM, DNA 0.2 µM).
With `COC1OC(C)C(OC2OC(C)C(OS(=O)(=O)O)C(OC3OC(C)C(OS(=O)(=O)O)C(OS(=O)(=O)O)C3O)C2O)C(OS(=O)(=O)O)C1O` (stereo not shown) the prothrombin time was 15.2 ± 0.3 s (human plasma; 128 µg/mL).
`O=C(N/N=C/c1cc[n+](CC2CC2)c2ccccc12)c1ccc2ccc3ccc(C(=O)N/N=C/c4cc[n+](CC5CC5)c5ccccc45)nc3c2n1` gave a ΔTm of 14.6 ± 0.3 °C (MYC parallel G4 DNA; FRET melting; 1 µM, DNA 0.2 µM).
`Cc1ccc(/C=N/N=C(\S)Nc2cccc(S(=O)(=O)N(C)C)c2)o1` gave an EC50 of 14.1 µM (Mus musculus; gene silencing, high-content imaging; LDR reporter GFP cells; confirmation, mean of two runs).
`Cc1ncsc1-c1ccc(C(C)NC(=O)C2CC(O)CN2C(=O)C(NC(=O)CCCCCCCCCCN2CCCC(Nc3ncc(Cl)c(Nc4ccccc4S(=O)(=O)C(C)C)n3)C2)C(C)(C)C)cc1` (stereo not shown): “log2 fold change” -1.25 (22Rv1; RNA-seq, item: MYC mRNA; concentration not given; reference: DMSO).
`C[n+]1ccc(/C=N/NC(=O)c2ccc3ccc4ccc(C(=O)N/N=C/c5cc[n+](C)c6ccccc56)nc4c3n2)c2ccccc21` gave a ΔTm of 7.8 ± 0.7 °C (MYC parallel G4 DNA; FRET melting; 1 µM, DNA 0.2 µM, added: duplex DNA competitor 10 µM).
Under “prothrombin time prolongation”, `COC1OC(C)C(OC2OC(C)C(OS(=O)(=O)O)C(OC3OC(C)C(OC4OC(C)C(OS(=O)(=O)O)C(OC5OC(C)C(OC6OC(C)C(OS(=O)(=O)O)C(OC7OC(C)C(OC8OC(C)C(OS(=O)(=O)O)C(OC9OC(C)C(OC%10OC(C)C(OS(=O)(=O)O)C(OC%11OC(C)C(OS(=O)(=O)O)C(OS(=O)(=O)O)C%11O)C%10O)C(OS(=O)(=O)O)C9O)C8O)C(OS(=O)(=O)O)C7O)C6O)C(OS(=O)(=O)O)C5O)C4O)C(OS(=O)(=O)O)C3O)C2O)C(OS(=O)(=O)O)C1O` (stereo not shown) is recorded as 0.98 fold (human plasma; 128 µg/mL; reference: control).
`CN1CCCNC(=O)c2cccc(c2)C(=O)NCCCN(C)CCCNc2cccc3c2C(=O)c2cccc(c2C3=O)NCCC1` — result for “log2 fold change”: 0.478 (SAS; RNA-Seq, item: CNDP2 mRNA; 1 µM, 6 h; reference: untreated cells).
`Nc1ncc(-c2cc(-c3cnn(CC(F)(F)F)c3)ncc2F)nc1C(=O)NC1CNCC(F)C1` (stereo not shown) gave a remaining binding of 81% (MRCKB; KINOMEscan competition binding; 1 µM; reference: DMSO control).
The EC50 of `COc1ccc2c(C)nc(Nc3nc(O)cc(-c4ccccc4)n3)nc2c1` is reported as 5.62 µM (Mus musculus; gene silencing, high-content imaging; LDR reporter GFP cells; confirmation, mean of two runs).
`CNS(=O)(=O)Nc1nccc(Cc2c(C)c3ccc(Oc4ncccc4F)cc3oc2=O)c1F` gave an IC50 of 0.00465 µM (SW1417; cell viability; 7 days).
For `COC1CN([C@H]2CC[C@H]([C@@]3(C)Oc4c(Cl)cc(C(=O)NCc5c(SC)cc(C)[nH]c5=O)c(C)c4O3)CC2)C1`, “log2 fold change” read 0.078 (RNA-seq, item: MTUS1 mouse homolog; mouse, HT-1376 xenograft, whole blood; dose not given; reference: vehicle).
The relative co-enrichment of `C=CC(=O)N1[C@@H](c2ccc3c(c2)OCO3)c2[nH]c3ccccc3c2C[C@H]1C(=O)N1CCN(C)CC1` is reported as 92% (human cyclin E1 N112C-3xFLAG:CDK2; co-IP with TMT proteomics, item: TK1; concentration not given, P04183; reference: wild type DMSO).
Under “fluorescence signal ratio”, `CC(C)C[C@H](NC(=O)[C@H](CC(=O)O)NC(=O)CNC(=O)[C@@H](N)CCCNC(=N)N)C(=O)N[C@@H](C)C(=O)N[C@H](C(=O)N[C@@H](CC(C)C)C(=O)N[C@@H](CCCNC(=N)N)C(=O)N[C@@H](CCC(N)=O)C(=O)N[C@@H](CC(C)C)C(=O)N[C@@H](C)C(=O)N[C@@H](CCC(N)=O)C(=O)N[C@@H](CCC(=O)O)C(=O)N[C@@H](CC(=O)O)C(=O)NCC(=O)N[C@H](C(=O)N[C@H](C(=O)NCC(=O)N[C@H](C(=O)N[C@@H](CCCNC(=N)N)C(=O)NCCOCCOCCOCCOCCOCCOCCOCCOCCOCCOCCOCCOCCC(=O)N[C@@H](CS)C(N)=O)C(C)C)C(C)C)C(C)C)[C@@H](C)O` is recorded as 0.069 and 0.005 (ex vivo NIR imaging; NOD/SCID mice, xenograft, H460 xenograft; intravenous, 30 µg, 24 h; reference: liver).
`COc1nc(Nc2nc(O)c3ccccc3n2)nc2ccc(C)cc12` gave an AC50 of 39.8 µM (Mus musculus; gene silencing, high-content imaging; LDR reporter GFP cells; retest run 1).
With `C[n+]1cc(/C=N/NC(=O)c2ccc3ccc4ccc(C(=O)N/N=C/c5cc6ccccc6[n+](C)c5)nc4c3n2)cc2ccccc21` the ΔTm was 1.7 ± 0.7 °C (hp2 hairpin duplex DNA; FRET melting; 1 µM).
Under “prothrombin time prolongation”, `COC1OC(C)C(OC2OC(C)C(O)C(OC3OC(C)C(OC4OC(C)C(O)C(OC5OC(C)C(OC6OC(C)C(O)C(OC7OC(C)C(OC8OC(C)C(O)C(OC9OC(C)C(OC%10OC(C)C(O)C(OC%11OC(C)C(OC%12OC(C)C(O)C(OS(=O)(=O)O)C%12OS(=O)(=O)O)C(OS(=O)(=O)O)C%11OS(=O)(=O)O)C%10OS(=O)(=O)O)C(OS(=O)(=O)O)C9OS(=O)(=O)O)C8OS(=O)(=O)O)C(OS(=O)(=O)O)C7OS(=O)(=O)O)C6OS(=O)(=O)O)C(OS(=O)(=O)O)C5OS(=O)(=O)O)C4OS(=O)(=O)O)C(OS(=O)(=O)O)C3OS(=O)(=O)O)C2OS(=O)(=O)O)C(OS(=O)(=O)O)C1OS(=O)(=O)O` (stereo not shown) is recorded as 0.97 fold (human plasma; 128 µg/mL; reference: control).

Repeated from above:
`C[n+]1cc(/C=N/NC(=O)c2cc(C(=O)N/N=C/c3cc4ccccc4[n+](C)c3)ncn2)cc2ccccc21` gave a ΔTm of 1.5 ± 0.9 °C (hp2 hairpin duplex DNA; FRET melting; 1 µM).
With `C=CC(=O)Nc1cccc(Cn2ncc3cnc(Nc4cnn(CCOC)c4)nc32)c1` the binding was 17% (human ABL1(F317L)-nonphosphorylated; KINOMEscan; 100 nM; reference: control).
`C[n+]1ccc(/C=N/NC(=O)c2ccc3ccc4ccc(C(=O)N/N=C/c5cc[n+](C)c6ccccc56)nc4c3n2)c2ccccc21` gave a ΔTm of 7.8 ± 0.7 °C (MYC parallel G4 DNA; FRET melting; 1 µM, DNA 0.2 µM, added: duplex DNA competitor 10 µM).
`N=C(S)N/N=C/c1ncc(C(F)(F)F)cc1Cl` has an EC50 of 7.94 µM (Mus musculus; gene silencing, high-content imaging; LDR reporter GFP cells; confirmation, mean of two runs).
